Results of several laboratories.
Compare with care: the assays were run in different laboratories.

NC1(C(=O)N[C@@H](CCO)c2ccc(Cl)cc2)CCN(c2nc[nH]c3nccc2-3)CC1
incidence of Nausea (metastatic CRPC patients; dose not given, grade 3 to 4, treatment-related, all doses, with: enzalutamide 160 mg daily): 0%

O=C(Nc1nc2cccc(-c3ccc(CN4CCS(=O)(=O)CC4)cc3)n2n1)C1CC1
incidence of gastritis (rheumatoid arthritis patients; oral, 150 mg once daily, 4 weeks, TEAE regardless of relatedness): 0%

C[C@@H](c1ccc2nccn2c1)n1nnc2ncc(-c3cnn(C)c3)nc21
incidence of treatment-related AEs (item: maculopapular rash; EGFR-mutant MET-altered NSCLC patients; oral, dose not given, AE grade ≥3, all): 1%

NCCONC(=O)[C@@H]1CC[C@@H]2CN1C(=O)N2OS(=O)(=O)O
incidence of serious TRAE (healthy Chinese male subjects; intravenous, 1 g): 0%

COc1ccc([C@@H](O)c2cc(-c3ncnc4cc(N5CCOCC5)ccc34)c(F)cc2Cl)nn1
incidence of proctitis TEAE (locally advanced rectal cancer; oral, 250 mg, with: capecitabine and radiotherapy): 67%

CCO[C@H]1CCN(Cc2c(OC)cc(C)c3[nH]ccc23)[C@H](c2ccc(C(=O)O)cc2)C1
incidence reverse T3 increase (PNH patients, active haemolysis; oral, 25 mg, treatment): 0%

N#CCNC(=O)c1ccc(-c2ccnc(Nc3ccc(N4CCOCC4)cc3)n2)cc1
incidence of grade ≥3 thrombocytopenia (patients with myelofibrosis; oral, 200 mg, 24 weeks, phase III trials): 10.8%

C[C@@H](N)C1CCN(S(=O)(=O)c2cccc3cnccc23)CC1
incidence of epistaxis TEAE (healthy volunteers; 150 mg, fed): 10%

C=CC(=O)Nc1cc(Nc2nccc(-c3cn(C)c4ccccc34)n2)c(OC)cc1N(C)CCN(C)C
incidence of treatment-related AEs (item: peripheral oedema; EGFR-mutant MET-altered NSCLC patients; oral, dose not given, AE grade ≥3, all): 3%

A few entries again:
C[C@@H](c1ccc2nccn2c1)n1nnc2ncc(-c3cnn(C)c3)nc21
incidence of treatment-related AEs (item: maculopapular rash; EGFR-mutant MET-altered NSCLC patients; oral, dose not given, AE grade ≥3, all): 1%
